Published values from different studies.
A part holds a random share of what one study measured.

Series 1
Target: Centromere-binding protein 1, full length, His-tagged (CBF1, Saccharomyces cerevisiae, UniProt P17106, residues 1-351)
Sequence of UniProt P17106 (whole entry, looked up): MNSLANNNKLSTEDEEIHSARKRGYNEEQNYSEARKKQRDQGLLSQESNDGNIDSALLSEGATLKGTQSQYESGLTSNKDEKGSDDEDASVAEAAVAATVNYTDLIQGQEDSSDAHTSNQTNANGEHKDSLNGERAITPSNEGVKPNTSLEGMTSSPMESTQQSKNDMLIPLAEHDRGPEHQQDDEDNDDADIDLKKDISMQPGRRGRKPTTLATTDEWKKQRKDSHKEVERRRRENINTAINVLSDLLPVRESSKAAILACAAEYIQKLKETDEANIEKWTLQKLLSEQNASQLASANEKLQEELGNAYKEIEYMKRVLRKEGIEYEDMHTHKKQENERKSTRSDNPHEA
Technique: competition protein-binding microarray
Form: double-stranded DNA, one strand shown
Medium: in vitro
Tested at: 2 µM
Setting: whole 60-bp probe, lowest competitor level
With: Pho4 competitor, 0.05 µM
Direction: higher = stronger binding
Oligonucleotide	fluorescence intensity [a.u.]
TTTCTGGTGTCTATGAAGGTGTCTCAACAATCGAACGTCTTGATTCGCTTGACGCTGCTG	79.3
CGGGCTGATCCCTTTATCGTGCATCTTGACCACTTTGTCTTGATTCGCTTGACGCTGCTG	52.3
CTTAAATGAAACTGACGCGTGGCCGTAGATTCCAACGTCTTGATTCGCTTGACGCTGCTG	74.2
CTAGATGATAACCGACACGGGTTGGAAGACGGAAATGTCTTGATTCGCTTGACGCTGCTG	79.7
CCTTCACTATTTTAACATGTGGAATTCTTGAAAGAAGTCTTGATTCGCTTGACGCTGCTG	122
CGTCCTAGTGATTTTCACGTGATGTCCATGAGGAAGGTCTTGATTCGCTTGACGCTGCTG	3330
TTTCCAGTTAGGTACCATGTGGCATGCTGTTTTTCCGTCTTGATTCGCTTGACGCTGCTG	113
TTGTGGGAGTGATTGTGCGTGTATATGTGTGTTGGCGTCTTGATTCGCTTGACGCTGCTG	82.1
GCTAATCGGCTATTTGACATGATGTCTTCCTTTCCTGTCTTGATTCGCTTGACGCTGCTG	64.8
CATACCCAACCTTTTCACGTGTTCTAAGATATTTGTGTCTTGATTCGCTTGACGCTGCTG	1500
AAATTACTAAGTTGGACTGTGGGTGACGCCGTATGAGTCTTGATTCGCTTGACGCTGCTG	71.7
CGTCCTAGTGATTGCGCCGTGGGTGCCATGAGGAAGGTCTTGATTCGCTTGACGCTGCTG	78.4
GACCATATCTTTGTACGCATTGTTTCCATTCAAAGAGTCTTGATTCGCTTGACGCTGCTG	90.2
ATAACCATAGGAAAGCACGTGATGGTGGAAGGACAGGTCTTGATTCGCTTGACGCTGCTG	3720
GATCTACTATCAGTTTTCGTGGCCGATGGGTTACATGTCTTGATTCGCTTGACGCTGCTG	72.7
TTATCTGACGTCCATCACGTGAAGTGTTTTGCGTAGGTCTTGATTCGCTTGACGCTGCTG	2700
TCACCAGACAAATATCACCTGGAACCACATCTTTTGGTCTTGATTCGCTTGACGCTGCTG	81.2
AGTTACTATTTCTGGCTCGTGTAATATATGTATGCTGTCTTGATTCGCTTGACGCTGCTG	131
CGGGGTTAAGTTTGTTTGGTGGGTGGCTTGCAGCAGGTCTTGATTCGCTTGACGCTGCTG	80.6
GTCTTGTCTCATTGTCACCAGACTTTCCCCACTTCAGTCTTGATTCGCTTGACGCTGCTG	101
GGTAATGACATTCGTCACGTGCTTTAGGGCTTGGTGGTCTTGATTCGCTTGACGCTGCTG	6030
TGGCGCTGGGGTCCTCACGGGCGCTTTGTTCAAGTCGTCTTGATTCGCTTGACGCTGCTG	63.3
AAATTACTAAGTTGCTCCGTGGGTGACGCCGTATGAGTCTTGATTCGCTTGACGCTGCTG	54.9
CATACCCAACCTTGCCCAGTGGGTGAAGATATTTGTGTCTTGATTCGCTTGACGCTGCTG	64.2
AGGGTTACCATTAAAAAGCGTCCCAGAAAAGGTGGAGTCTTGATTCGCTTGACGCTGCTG	68.4

Series 2
Target: RNA binding protein fox-1 homolog 2, RRM domain, GST-SBP tag (RBFOX2, Homo sapiens, UniProt O43251-10, residues 100-194)
Technique: RNA Bind-n-Seq
Form: RNA
Medium: in vitro
Tested at: 365 nM
Setting: natural RNA segment, single round, ends assumed
Baseline: no-protein control
Direction: higher = stronger binding
Target sequence (chain): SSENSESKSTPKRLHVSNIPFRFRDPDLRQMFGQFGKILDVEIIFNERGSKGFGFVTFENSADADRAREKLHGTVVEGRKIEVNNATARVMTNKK
Oligonucleotide	RBNS enrichment (R)
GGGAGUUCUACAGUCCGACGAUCAGCGAGGGAAAUGUAUGGAUUAUAUUAAAUGUGGGUUACUACACAAGAGGCCGAACAUUCCAAGUAGCAGAAGAGAGGGUCUCUCAACUCUGCUCCUCACCUGCAGAAGCUGGAAUUCUCGGGUGCCAA	0.232
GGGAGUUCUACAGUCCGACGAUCCUUCAAUGCUAGAAAAUCGAGUUGGCAAAAUGGGGUUUGGGCCCCUCAGAGCCCUGCCCUGCACCCUUGUACAGUGUCUGUGCCAUGGAUUUCGUUUUUCUUGGGGUACUUGGAAUUCUCGGGUGCCAA	0.34
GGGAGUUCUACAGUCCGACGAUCUUUUGUUUAUAAAGAUGUUCAGAUUUCUUAGUAACUGUAUUAAAUGGUUAAUUAAAACUGUGAAUUUUUGUGUAACUAGUUUCAGAGUGUUAUUAAAUAUGAUAAAAUGCUGGAAUUCUCGGGUGCCAA	0.793
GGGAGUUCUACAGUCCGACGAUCUCUCUUUAGUACUUACGUAUUGGGAUUCCUGUGUCUUACAGCUCUCCCUCUCCAAAUAAUACACAGAAUCCUGCAACUUUUUGCACAGCUGGUAUCUGUCUGGUAGCAGUUGGAAUUCUCGGGUGCCAA	0.325
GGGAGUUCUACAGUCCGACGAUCGAAAGCAGUAUGGAUUCUUUAAAUGCCUCUCACUCUUACAAGAUAGUAGGCUUUGAGAUAAUAAACUUACCCGUGUCAAUUAACAUUUAAACUGGCAUAUAGAAAAAAAGUGGAAUUCUCGGGUGCCAA	0.336
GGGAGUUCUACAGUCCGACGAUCAUUUUUAUUAAACAGUGAACUUGUCUGGCUUUGGCACUCUCUGCCAUUCUGUGCAGGCUGCAGUGGCUCCCCUGCCCAGCCUGCUCUCCCUAACCCCUUGUCCGCAAGGGUGGAAUUCUCGGGUGCCAA	0.35
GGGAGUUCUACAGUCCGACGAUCGCAGUGCCCCAGCUGGGAAGAGGGCGGGAUCGGGCACUGGUUCCUCCUUGUCCCCGCUUUCUUGGGGGCUUGCUACUUUUUGUCUUCUAUUGUGUGGCUUUCUGAGUAUUUGGAAUUCUCGGGUGCCAA	2.37
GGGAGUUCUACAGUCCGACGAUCCUGGGAUUCGUUUUUUUAUUACCCUCCCUCCCUACUUGUAGGCCUCAGCUAUGGCUUGACGUAAUCGCUUUUAGACCCAGGUUGGCUUCCCUUCAUUAAGCUAUGAUCCUUGGAAUUCUCGGGUGCCAA	0.47
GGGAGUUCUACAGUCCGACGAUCCAUGGUCCCUUGUUAGUGUUGUGCCAAAGGCCUUGGGUCAGUUCUCUCAGCUUCCAUAUGGAAGUGAGGAAGGGACCUGUGCCUAUUAGCCCUCUUGAUUCUCACCUGAUUGGAAUUCUCGGGUGCCAA	0.452
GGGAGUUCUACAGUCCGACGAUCUUUCUCUAUGAAAGUAAAGCUGUUUGAAAAAUUAUUAUUUUUUUACAGAUCUUUCUAUAAAAAAUAAACAUCUUUUGAUUGCUUGGAUUUAGGAAUUCAAUUUUUGUUUCUGGAAUUCUCGGGUGCCAA	0.976
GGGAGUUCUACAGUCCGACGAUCUAAUUUAUUUUGUUAACACCCCUAAUUACAACCAAAGUGAUGAUGUGGAGUCUUCUGUCUUCAUUUUGGCCCCAGCAUUCUUAAUUUCAAAGCUUUAUUCUGUCUGCCUAUGGAAUUCUCGGGUGCCAA	0.834
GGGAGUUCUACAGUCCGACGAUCCUCCUGGCCUCCCAGGUCACGCCAAACAGGCUAGAUCUUCCUGAGGACAGCCACCCAGGUCUGCAGCCCCACAAGGCCCUGCUCCUGAUCAGCCUCAGCCAGAGGACGAGUGGAAUUCUCGGGUGCCAA	0.206

Series 3
Target: TAR DNA-binding protein 43, full length, His tag (TARDBP, Homo sapiens, UniProt Q13148, residues 1-414)
Technique: RNA Bind-n-Seq
Form: RNA
Medium: in vitro
Tested at: 20 nM
Setting: 6-mer, flanks averaged, single round
With: 150 mM KCl
Baseline: input library
Direction: higher = stronger binding
Oligonucleotide	6-mer enrichment (R)
GACCCC	0.714
CUUAUC	0.545
CCUGUG	0.852
CUACCG	0.658
AAUAUG	0.733
CAAUCA	0.585
UACGAC	0.625
GUCCCA	0.669
CCACCG	0.706
UCGCUA	0.588
AUAACC	0.623
CAAUUC	0.578
CGAAGG	1.56
GUAGAG	1.64
ACGUUU	0.607
AGCAUU	0.593
AGAAUG	1.07
CGCUUU	0.614
CCCGAA	0.681
CUCCCU	0.653
UACUAU	0.57

Series 4
Target: Protein C-ets-1 (ETS1, Homo sapiens, UniProt P14921, residues 1-441, K379A, full length assumed)
Technique: protein-binding microarray
Form: double-stranded DNA, one strand shown
Medium: in vitro
Tested at: not given
Setting: k-mer, scored over probes, only values ≥0.25
Direction: higher = stronger binding
Target sequence (chain): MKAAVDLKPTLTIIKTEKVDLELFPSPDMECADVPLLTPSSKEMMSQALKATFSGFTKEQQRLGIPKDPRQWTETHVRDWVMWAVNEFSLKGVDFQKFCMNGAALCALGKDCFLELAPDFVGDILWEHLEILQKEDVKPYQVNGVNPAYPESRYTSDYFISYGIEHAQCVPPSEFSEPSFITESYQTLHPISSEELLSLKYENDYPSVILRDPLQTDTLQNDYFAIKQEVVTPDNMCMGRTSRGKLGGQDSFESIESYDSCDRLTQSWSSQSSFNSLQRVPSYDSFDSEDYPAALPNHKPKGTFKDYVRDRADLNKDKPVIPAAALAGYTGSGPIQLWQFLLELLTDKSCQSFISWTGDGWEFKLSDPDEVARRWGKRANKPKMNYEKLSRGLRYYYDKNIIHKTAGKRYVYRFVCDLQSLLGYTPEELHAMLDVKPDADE
Oligonucleotide	E-score
ATTATCAC	0.272
GGTTGGAA	0.258
GGGCGGGA	0.396
CGGCCGGC	0.35
AACCGACG	0.351
AATTGACG	0.26
CCCCCGGC	0.285
ATACCGAC	0.3
CCGGTGCG	0.39
CCGGGAAA	0.323
CCACCGGC	0.353
GATGTTGC	0.309
AACCGGTG	0.323
AGGCGGAA	0.262
GAAAATTA	0.26
ACTATCCG	0.295
AGTATATG	0.273
CGCCGCCA	0.268
CCATATAC	0.336
CATGCCGG	0.34
ACTATACA	0.31

Some of these lines once more (series 4):
Oligonucleotide	E-score
ATACCGAC	0.3
CCGGTGCG	0.39
CCGGGAAA	0.323
CCACCGGC	0.353
GATGTTGC	0.309
AACCGGTG	0.323
AGGCGGAA	0.262
GAAAATTA	0.26
